Measurements pooled from the literature.
Protocols differ between the studies behind these lines.
Cell line: MIA PaCa-2

O=C(CSc1nc(-c2ccccc2)n[nH]1)N1CCC(=C2c3ncccc3CCc3cc(Cl)cc(Br)c32)CC1  IC50 (cell growth or viability, SRB): 42 µM
Cc1ccc(C(C)C)cc1.O=C(N=P12CN3CN(CN(C3)C1)C2)c1[c-]cccc1.[Cl-].[Ru+2]  IC50 (cell growth or viability, MTT; 24 h): 54.5 µM
Cc1c(-c2cccc(C3=NCCN3)c2)oc(-c2cccc(C3=NCCN3)c2)c1C  IC50 (cell growth or viability, SRB): 0.3 µM
C=C1CCC(=O)C(C)CCC2C1CC2(C)C(=O)C=CC(C)(C)O (stereo not shown)  IC50 (cell growth or viability, CCK-8; 72 h): 4.07 µM
Cc1ccc(C(C)C)cc1.O=C(N=P(c1ccccc1)(c1ccccc1)c1ccccc1)c1ccccn1.[Cl-].[Cl-].[Ru+2]  IC50 (cell growth or viability, MTT; 24 h): 2.9 µM
COC(=O)[C@H]1[C@H]2C[C@H]3O[C@@]4(CCN3C[C@H]2C[C@@H](OC(=O)c2cc(OC)c(OC)c(OC)c2)[C@@H]1OC)C(=O)Nc1cc(OC)c(-c2ccccc2)cc14  IC50 (cell growth or viability, crystal violet; 72 h): 21.8 µM
COc1ccc2c(c1)C(=C1Nc3ccccc3C1=NOCC(O)CO)C(=O)N2 (stereo not shown)  IC50 (cell growth or viability, MTS; 48 h): 0.68 µM
COc1ncc(-c2ccc3c(Nc4cc(Oc5cc(F)cc(F)c5)cc(C(=O)O)c4)c(S(=O)(=O)NC4CC4)cnc3c2)c(OC)n1  IC50 (lactate production, measured: lactate in supernatant; 6 h): 0.3 µM
CCCCCCCCCCCCCCCCCC(=O)Nc1ccn(C2OC(CO)C(O)C2(F)F)c(=O)n1 (stereo not shown)  IC50 (cell growth or viability, resazurin; 48 h, 3D culture): 39.1 µM
COC(=O)[C@@H](Cc1cn(Cc2ccccc2)nn1)NC(=O)OCC1c2ccccc2-c2ccccc21  IC50 (cell growth or viability, MTS; 72 h): 1.12 µM
O=C(CN1CCC(c2noc3cc(F)ccc23)CC1)N1CCC(=C2c3ncccc3CCc3cc(Cl)cc(Br)c32)CC1  IC50 (cell growth or viability, SRB): 33 µM
COC(=O)[C@@H](Cc1cn(Cc2ccc(C)cc2)nn1)NC(=O)OCC1c2ccccc2-c2ccccc21  IC50 (cell growth or viability, MTS; 72 h): 7.09 µM
CCCCCCCCCCCCCCOC(=O)Nc1ccn([C@@H]2O[C@H](CO)[C@@H](O)C2(F)F)c(=O)n1  IC50 (cell growth or viability, MTT; 48 h): 4.37 µM
O=C(N=P12CN3CN(CN(C3)C1)C2)c1cccc[c]1[Au]([Cl])[Cl]  IC50 (cell growth or viability, MTT; 24 h): > 125 µM
Nc1ccc(/C=C/C(=O)N2CCc3c(oc4c(-c5ccc(F)cc5)cc(-c5ccc(NC(=O)[C@@H]6CCCO6)nn5)cc34)C2)cn1  IC50 (cell growth or viability, CCK-8; 72 h): ~3 µM
COC(=O)[C@H]1[C@H]2C[C@H]3O[C@@]4(CCN3C[C@H]2C[C@@H](OC(=O)c2cc(OC)c(OC)c(OC)c2)[C@@H]1OC)C(=O)Nc1cc(OC)c(-c2ccc(C(F)(F)F)cc2)cc14  IC50 (cell growth or viability, crystal violet; 72 h): 6.11 µM
Cc1ccc(C(C)C)cc1.[Cl-].[Cl-].[Fe+2].[Ru+2].c1cc[cH-]c1.c1ccc(P(=NCc2ccccn2)(c2ccccc2)[c-]2cccc2)cc1  IC50 (cell growth or viability, MTT; 24 h): > 125 µM
O=C(CNc1nnc(-c2ccccc2)s1)N1CCC(=C2c3ncccc3CCc3cc(Cl)cc(Br)c32)CC1  IC50 (cell growth or viability, SRB): > 120 µM
C=C1CC(O)CC(C)=CCC2C1CC2(C)O (stereo not shown)  IC50 (cell growth or viability, CCK-8; 72 h): > 50 µM
Nn1c(SCC(=O)N2CCC(=C3c4ncccc4CCc4cc(Cl)cc(Br)c43)CC2)nnc1-c1ccccc1  IC50 (cell growth or viability, SRB): 37 µM
COC(=O)[C@H]1[C@H]2C[C@H]3O[C@@]4(CCN3C[C@H]2C[C@@H](OC(=O)c2cc(OC)c(OC)c(OC)c2)[C@@H]1OC)C(=O)Nc1cc(OC)c(-c2ccc(C)cc2)cc14  IC50 (cell growth or viability, crystal violet; 72 h): 4.18 µM
C=C1CC[C@@H]2O[C@@]2(C)CC[C@H]2[C@H]1C[C@]2(C)C(=O)/C=C/C(C)(O)COC(C)=O (stereo partly shown)  IC50 (cell growth or viability, CCK-8; 72 h): 2.54 µM

A few entries again:
O=C(CSc1nc(-c2ccccc2)n[nH]1)N1CCC(=C2c3ncccc3CCc3cc(Cl)cc(Br)c32)CC1  IC50 (cell growth or viability, SRB): 42 µM
Nn1c(SCC(=O)N2CCC(=C3c4ncccc4CCc4cc(Cl)cc(Br)c43)CC2)nnc1-c1ccccc1  IC50 (cell growth or viability, SRB): 37 µM
C=C1CC[C@@H]2O[C@@]2(C)CC[C@H]2[C@H]1C[C@]2(C)C(=O)/C=C/C(C)(O)COC(C)=O (stereo partly shown)  IC50 (cell growth or viability, CCK-8; 72 h): 2.54 µM
